Results collected from several papers.
Each numbered part is a random draw from the data of one study; scales do not carry over between parts.

Block 1 — technique: RNA Bind-n-Seq; molecule type: RNA; medium: in vitro; concentration: not given; reference: input RNA pool; direction: higher = stronger binding
Target: RING finger protein unkempt homolog, zinc fingers 1-6, GST-SBP tag (UNK, Homo sapiens, UniProt Q9C0B0, residues 30-357)
Notes: RNA with constant flanks, human and mouse sites, ends assumed
Constant ends, left off below: GGGAGUUCUACAGUCCGACGAUC … CAACAGAGGAUUGAGCAUCA
Target sequence (chain): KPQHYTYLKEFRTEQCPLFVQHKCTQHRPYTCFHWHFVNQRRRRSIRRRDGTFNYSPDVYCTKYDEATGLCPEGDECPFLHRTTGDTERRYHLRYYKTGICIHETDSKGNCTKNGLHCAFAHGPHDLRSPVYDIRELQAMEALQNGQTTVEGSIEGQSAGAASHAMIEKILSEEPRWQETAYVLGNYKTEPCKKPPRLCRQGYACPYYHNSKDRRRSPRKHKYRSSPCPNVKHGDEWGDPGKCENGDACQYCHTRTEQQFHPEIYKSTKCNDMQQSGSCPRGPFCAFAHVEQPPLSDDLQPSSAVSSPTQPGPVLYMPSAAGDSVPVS
Oligonucleotide	bound/input enrichment
UUGAGCCACAAGAAGUGGAGGGGAGACCAUGCCUGGGAACAGACCCCCUUUUCACAGCAGUAAGUUUGUUUUGAGGCUUUCUCAGCUACUUGGCUCCCACAGAACCCAAGGCAGGUACAC	0.154 ratio
CCUGUUCUCAUUUCAGCUAUGAAGAUUUUUGUUACAACCAAAAACUCAAAAAACCAAGGAAUAGAAGAAGCUUUGAAAAAUCGAAAUUUUACUGUAGAAAAGAUGAGUGCUGAAAUUAAC	0.312 ratio
AUUUUUCAGAGAAGUAUAGAUACUGUCUCCACUCCCUAAUAAUUUCUCUCCCUAACAUUUUAGCAAUUUUUACCUUGUUUGGGGGUUCAUUUUGUUUCUUCAGAUUUGAUUUAGACUCUG	8.96 ratio
AUGGAUAUUGAAUUUGACUUUAAAGGCGAUCCACUAGGAGGAGUAAUAAGUAACUAUCUUUUAGAGAAAUCUCGGGUUGUUAAACAGCCAAGAGGUGAAAGAAACUUCCAUGUGUUCUAU	0.182 ratio
GAGAAAUACUUCCAAUUCCAAGAAGAGGGCAAAGAAGGAGAGAACAGAGCAGUUAUCCAUUAUAGGGAUGAUGAGACCAUGUAUGUGGAAUCUAAGAAAGACAGAGUCACAGUAGUCUUC	0.537 ratio
GAAGUCACCCCAAACCCCAGCUCCCACUUUCAGGGGCACCUCUCAGAUGGCCAUGCUCAGUAUCCCUUCCAGACAGGCCCUCCCCUCUCUAGCGCCCCCUCUGUGGCUCCUAGGGCUGAA	0.708 ratio
GUAGCAUCAACAUCUAUGAACAGAGAGUCUUCUAGAUCCCAUGCAGUCUUUACCAUCACAAUAGAAUCAAUGGAGAAGAGCAGCGAGACCGUGAACAUCCGGACCUCCUUACUCAACCUG	0.164 ratio
AUUAACGCUGUUGUAUGAACAAUAUUUGGUGACAUGUUGUCUUUUUGUCCUGUAGAUUGUCAUAUCUGUUAUGUAGUUAUCCUUUUGGCAAGUCCUUUGAUUUUUUUUUCCUCUAGAAAA	1.01 ratio
AAUUCCAGUGACAGUGAUUCAUCUUGUGGUUGGACUGUCAUCAGUCAUGAGGGGUCAGAUAUAGAAAUGUUGAAUUCUGUGACCCCCACUGACAGCUGUGAGCCCGCCCCAGAAUGUUCA	0.0726 ratio
GUAAUAGUAGCAAAUCCUAGGGAAGAAAUAAUCGUGAAAAAUAAAGAUGAAGAAGAGAAGUUAGUUAGUAAUAACAUCCUUCAUAAUCAACAAGAGUUACCUACAGCUCUUACUAAAUUG	2.69 ratio
GUUCCGGAAAUCAUGGAUCGGAUCUACAAAAAUGUCAUGAAUAAAGUCAGUGAAAUGAGUAGUUUUCAACGUAAUCUGUUUAUUCUGGCCUAUAAUUACAAAAUGGAACAGAUUUCAAAA	0.321 ratio

Block 2 — technique: RNA Bind-n-Seq; molecule type: RNA; medium: in vitro; concentration: 365 nM; reference: no-protein control; direction: higher = stronger binding
Target: RNA binding protein fox-1 homolog 2, RRM domain, GST-SBP tag (RBFOX2, Homo sapiens, UniProt O43251-10, residues 100-194)
Notes: natural RNA segment, single round, ends assumed
Constant ends, left off below: GGGAGUUCUACAGUCCGACGAUC … UGGAAUUCUCGGGUGCCAA
Construct (chain): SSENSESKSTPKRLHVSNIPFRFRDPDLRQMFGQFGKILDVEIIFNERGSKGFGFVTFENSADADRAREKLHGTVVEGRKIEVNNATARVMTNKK
Oligonucleotide	RBNS enrichment (R)
UAAAGUCAUCACGAAAUGGAAGUUUUCCCAGGGUGGAAAAUAAGAGGAAGUGCUGCUGUAAUUGGGAGCACAAGGGGCCUCCCAAAAAGGAGCCCCACCUCAGCAUCACU	0.178
GAGGUGACCACCGGGACCCAAGGUGGGGGGCCCAUAACUGUUUGUCUGCUCAGCCUUGCUGGAGAUUCUGGGUGGCAGGGAUGUCCUGAUGGGACCCUCUGGAGUCCAGC	0.747
AAGAACUCUUCCCUUCCCUGGUGAGUAUUUCCAUUAUUCCGUUAAGGUUUAAUAUGCAUUCAGAUUACUUUUACUAAAUAGGACACCAUAAAGCUUUUGUUAUAUAUUAA	2.27
CGAACCCCACUUGGCAUGUGCCGAGCACACAGUUCCUGUGGUAGACUUUUCAGAGAACCCUUCUGUGCCAGGACUCGUGGAAGCCUGGAGCGGAGCAGAUGCCUGUCCAA	0.347
GGUCUAUAUUAGAAAAAGAAAACUGUCCUUUUGCUAAAGAAAAAUUAAAUGAAUUUUUAAGGCUGAAAUCUGUGGGUAAGAUGGAGUCUGGAGCUUUCCUCUUGGAACAG	0.462
ACUUUAUAACCCUUACUGGACAACACACAGAUCCUUGAGCUCACGCUGCAGGAUAGUACAGUUUUACCGCAGAGGGAAUCUGGAACAGUGGAAUCAUGUGUCUGCCCUGU	0.299
UUCAAGUGCCCAGAGUGCGGCAAGCGCUUCGGCCAGAGCUCAGUUCUGGCCAUCCAUGCCCGCACCCACCUGCCAGGCCGCACGUACAGCUGCCCCGAUUGUGGCAAGAC	0.326
GGCCAGGGUGGUCUGCUUAGCCAGGAAAGGGCAAGUGCCUUCCCCUCGGCCACACUGCCCCUUGUGGCCUUCUCGGGACAUGUGGUAACUGACUUGCUCUCAGGCCCACC	0.278
CAGUCAGGAGGUGAGAGGCUGAGGAAAGAGCCAGCAUCAGGAGGUGACUCUGGUUGGCAAGGGUGAGCUGUGCUUGGCCAGGAAGGUGGCAUUAAAGGCUGUGCUCACGU	1.05
CAACUCCCCAAGAGUGCUUAUUUAAGUGUUAAUACUUUUAAGAGAACUGCGACGAUUAAUUGUGGAUCUCCCCCUGCCCAUUGCCUGCUUGAGGGGCACCACUACUCCAG	1.4
GCUUAAGGAAUAUCCCUGUCUUCUGUCUUUUGGUUUUCGUUUGUUCGUCUUUUAUUUUCUUGUGGCAUUAUUAGGCAGGUAAGCUUGAUGUAGACCAUUGACUGACCCCA	1.14
GGGCCACAUGUGUUCACUAUUCAGGCUCCACUGGGGGAAUUUUCCUACCUUUGCUGGCUUGGCUCCUGCUCCCAGGCCAGGGACCUCGGUCUGUCUACUACACACUCUGG	0.327

Block 3 — technique: protein binding microarray; molecule type: double-stranded DNA, one strand shown; medium: in vitro; concentration: not given; reference: not given; direction: higher = stronger binding
Target: Histone acetyltransferase KAT6A, both winged helices, GST fusion (KAT6A, Homo sapiens, UniProt Q92794, residues 1-181)
Notes: 8-mer, flanks averaged, mean of 2 arrays, mostly near background
Residues (chain): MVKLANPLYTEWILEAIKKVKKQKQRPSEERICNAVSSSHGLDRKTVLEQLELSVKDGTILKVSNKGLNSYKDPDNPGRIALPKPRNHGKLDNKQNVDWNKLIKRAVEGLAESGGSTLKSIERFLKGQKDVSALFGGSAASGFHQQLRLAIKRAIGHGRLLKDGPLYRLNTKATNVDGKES
Oligonucleotide	E-score
AGATTGTG	-0.0897
AGTTTTTG	-0.0982
AAAAGCGA	0.165
AAGTCTCG	-0.0101
ATACCCTG	-0.121
CAGCCTTA	-0.176
CCCCGGTA	0.141
CAGATAGC	-0.0934
GATCCTCC	-0.0462
GATAAGAA	0.138
AGCTTACG	0.12
AGTCTGTC	-0.0971
TATCTTAA	-0.0763
AATTACCT	-0.064
ACACGTGG	-0.0917
AGGGTGGC	-0.125
ACGGAGAT	0.0859
GGCGTACC	0.0876
CCTGATAG	-0.2
ATGCCGTG	0.214
ATAGGTGC	-0.141
GAGCCGCA	0.185
CATCACAG	-0.0578
ATTATATC	-0.102
CGGAAGAG	0.0671

Block 4 — technique: RNA Bind-n-Seq; molecule type: RNA; medium: in vitro; concentration: 200 nM; notes: whole 134-nt RNA, ends assumed; together with: 150 mM LiCl; reference: input library; direction: higher = stronger binding; library: 7-deaza-guanosine replaces G
Target: Ras GTPase-activating protein-binding protein 1, full length (G3BP1, Homo sapiens, UniProt Q13283)
Sequence of UniProt Q13283 (whole entry, looked up): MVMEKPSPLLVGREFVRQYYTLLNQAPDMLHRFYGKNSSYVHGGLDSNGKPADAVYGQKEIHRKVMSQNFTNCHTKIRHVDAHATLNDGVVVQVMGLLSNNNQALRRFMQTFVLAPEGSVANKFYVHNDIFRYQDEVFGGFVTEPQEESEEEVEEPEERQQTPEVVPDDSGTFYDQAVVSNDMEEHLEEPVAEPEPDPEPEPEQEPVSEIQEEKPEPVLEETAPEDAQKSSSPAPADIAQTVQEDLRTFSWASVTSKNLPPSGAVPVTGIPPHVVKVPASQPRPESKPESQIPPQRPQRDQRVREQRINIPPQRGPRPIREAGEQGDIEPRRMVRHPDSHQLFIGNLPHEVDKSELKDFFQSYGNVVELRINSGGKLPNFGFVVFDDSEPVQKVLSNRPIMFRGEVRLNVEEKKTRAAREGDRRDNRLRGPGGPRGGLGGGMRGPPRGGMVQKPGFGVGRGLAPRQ
Constant ends, left off below: GGGAGUUCUACAGUCCGACGAUC … UGGAAUUCUCGGGUGUCAAGG
Oligonucleotide	log2 enrichment
AGUCCUGUGCUACACAUCGUAUGUACCGAAUCGGGUUUUUUUGGGUUUGGGUUUGGGAAAGUAUUAUGUUACGCCGUUCGGAUCUGCACU	-0.593
CACAGACAACACGCACCCACACAGACACAGAGGGAAGGGGUUGGGAUGGGGACAGGGUGAAAAGCAGGGCGGGGUAGGACCCCAGCCCCU	-0.702
CAAGUCCUGUGCUACACAUCGUAUGUACCGAAUCGGAAAAAGGUUUUUGGUUUGGAAAGUAUUAUGUUACGCCGUUCGGAUCUGCACUUC	-2.42
AACAUGCAGGUGGGCAUCUUUGGGAAGUGGGGCAAGGGGGGGAUAGGGAGGGGGGUAACACUUUGGGAACAGGUGGUCCCAGGUCGUUUC	0.331
UCAAGUCCUGUGCUACACAUCGUAUGUACCGAAUCGGAGGAAAGGAAAAAAAGGAAAGUAUUAUGUUACGCCGUUCGGAUCUGCACUUCC	-0.619
AUGGACUUGCACAUGAUGAACUGUGAACUUCUAGCCACAUGUAGUGCCCUUGGGUACUUGGAGGGAGACACUUACCAUAAGGAACCAGAU	-1.12
ACCAUGCAGGUGGGCAUCUUUGGGAAGUGGGGCAAGGGGGGGAUAGGGAAGGGGGUAACACUUUGGGAACAGGUGGUCCCAGGUCGUUUC	0.291
UGGCCCUGGUGGCAUGCGGGGAGGAAGAGGUGGCCUCAUGGAUCGUGGUGGUCCCGGUGGAAUGUUCAGAGGUGGCCGUGGUGGAGAAAG	0.453
UCCUGUGCUACACAUCGUAUGUACCGAAUCAAAUUUUUAAACCCCCCCAAAUUUUUAAAAAAGUAUUAUGUUACGCCGUUCGGAUCUGCA	1.35
GUCCUGUGCUACACAUCGUAUGUACCGAAUCGGGGAAAAAGGAAAAAGGGGAAAAAGGGAAAGUAUUAUGUUACGCCGUUCGGAUCUGCA	-0.136
CACAGACAACACGCACCCACACAGCCACAGAGGGAAGGGGUUGGGAUGGGGACAGGGUGCACAGCAGGGCGGGGUAGGACCCCAGCCCCU	-0.269

A few entries again (block 4):
Oligonucleotide	log2 enrichment
UCAAGUCCUGUGCUACACAUCGUAUGUACCGAAUCGGAGGAAAGGAAAAAAAGGAAAGUAUUAUGUUACGCCGUUCGGAUCUGCACUUCC	-0.619
AUGGACUUGCACAUGAUGAACUGUGAACUUCUAGCCACAUGUAGUGCCCUUGGGUACUUGGAGGGAGACACUUACCAUAAGGAACCAGAU	-1.12
ACCAUGCAGGUGGGCAUCUUUGGGAAGUGGGGCAAGGGGGGGAUAGGGAAGGGGGUAACACUUUGGGAACAGGUGGUCCCAGGUCGUUUC	0.291
UGGCCCUGGUGGCAUGCGGGGAGGAAGAGGUGGCCUCAUGGAUCGUGGUGGUCCCGGUGGAAUGUUCAGAGGUGGCCGUGGUGGAGAAAG	0.453
UCCUGUGCUACACAUCGUAUGUACCGAAUCAAAUUUUUAAACCCCCCCAAAUUUUUAAAAAAGUAUUAUGUUACGCCGUUCGGAUCUGCA	1.35
GUCCUGUGCUACACAUCGUAUGUACCGAAUCGGGGAAAAAGGAAAAAGGGGAAAAAGGGAAAGUAUUAUGUUACGCCGUUCGGAUCUGCA	-0.136
